Experimental data gathered from unrelated publications.
Each numbered part is a random draw from the data of one study; scales do not carry over between parts.

Block 1 — technique: protein-binding microarray; form: double-stranded DNA, one strand shown; sample: in vitro; tested at: 2540 nM top; notes: 60-bp whole probe; together with: salmon DNA 0.4 mg/ml; reference: random background probes; direction: higher = stronger binding; all sequences stand within: GCCTAGCAC … GTCTTGATTCGCTTGACGCTGCTG
Target: Interferon regulatory factor 3, full length, phosphomimetic (IRF3, Homo sapiens, UniProt Q14653, residues 1-427, S386D/S396D/S398D/S402D/T404D/S405D)
Construct (chain): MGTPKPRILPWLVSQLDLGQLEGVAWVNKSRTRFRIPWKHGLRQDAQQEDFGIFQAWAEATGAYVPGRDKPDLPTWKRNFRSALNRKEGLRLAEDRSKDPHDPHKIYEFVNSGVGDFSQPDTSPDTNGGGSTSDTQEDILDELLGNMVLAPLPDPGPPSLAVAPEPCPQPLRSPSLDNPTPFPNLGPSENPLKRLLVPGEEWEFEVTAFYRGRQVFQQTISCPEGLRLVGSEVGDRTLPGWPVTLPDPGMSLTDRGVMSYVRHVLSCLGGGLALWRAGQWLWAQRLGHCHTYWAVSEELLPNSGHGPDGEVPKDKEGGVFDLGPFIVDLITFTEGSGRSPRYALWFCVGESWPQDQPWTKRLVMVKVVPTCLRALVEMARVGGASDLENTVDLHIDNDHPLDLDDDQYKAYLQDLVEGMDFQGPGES
Sequence	fitted relative affinity [z-score]
GTGTGTGTCTGATTATTTACGTGCTAG	0.461
TCCTATGTCATTTACATTTTGTGCTAG	0.98
TCAACACTCGGTTTCCAACTGTGCTAG	3.38
TTTTTTGTATTTTTGATAGAGTGCTAG	1.76
GACGATCTCAGGCTCGAGACGTGCTAG	0.0895
GTTCTTTTCTGTTGTCTGTGTGTGCTA	2.62
GACGGTATCGACAGTGGGGACGTGCTA	0.0606
TTTTTTTTCACTATTGCTTCGTGCTAG	2.18
GACGGTTCTCTTTTCCTGACGTGCTAG	2.93
GCCGGACTGGGTTTCGGGACGTGCTAG	1.49

Block 2 — technique: EMSA with sequencing; form: double-stranded DNA, one strand shown; sample: in vitro; tested at: 10 and 20 nM; reference: negative control set to 0; direction: higher = stronger binding
Target: Hepatocyte nuclear factor 3-alpha (Foxa1, Mus musculus, UniProt P35582, residues 1-468, full length assumed)
Notes: whole designed probe, mean of two concentrations, ends assumed
All sequences stand within: GTGAGCGGTGCCCATTGATGGGGAAC … TTTCACTGGGATCGTGGGGAC
Residues (chain): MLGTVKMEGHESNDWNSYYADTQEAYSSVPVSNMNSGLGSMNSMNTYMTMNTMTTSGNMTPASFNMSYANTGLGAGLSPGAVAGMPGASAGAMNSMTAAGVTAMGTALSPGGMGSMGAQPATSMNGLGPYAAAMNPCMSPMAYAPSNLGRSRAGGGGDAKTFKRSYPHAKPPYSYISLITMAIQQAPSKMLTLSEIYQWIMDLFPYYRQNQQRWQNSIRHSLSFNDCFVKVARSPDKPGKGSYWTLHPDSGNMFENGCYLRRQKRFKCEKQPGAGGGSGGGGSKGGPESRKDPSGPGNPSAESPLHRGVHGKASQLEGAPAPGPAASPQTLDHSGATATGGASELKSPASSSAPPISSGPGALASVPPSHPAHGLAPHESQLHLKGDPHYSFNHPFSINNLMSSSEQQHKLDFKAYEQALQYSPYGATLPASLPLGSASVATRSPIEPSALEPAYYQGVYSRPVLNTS
Sequence	normalised bound fraction [ratio]
ATCTTCCCCCTCTTCCTTGCCCCACCAGCTCACCTACGGGGGTTATTTGCAGATAGGAAAATAAATAAAGCCGGCATTCGTTAACCCTCTTCACGCGCATACTGCTGTTTGCTCTGGATCTAACATGGTCCTTTGGCGAGGCGTGGCTCCGGGAGAGCAAAGCACCGTGTCAGGGCCATGATCCGGGCTCGCC	0.34
ATCTTCCCCCTCTTCCTTGCCCCACCAGCTCACCTTCCCGGGTTATTTGCAGATAGGAAAAAAAATTAAGCCGGCATTCGTTAACCCTCTTCTGGCGCAAACTGCTGTTTGCTCTGGATGAATCATGGTCCTTTGGCGACGCCAGGCTCCGGGAGAGCAAAGCACCGTGTCAGGGCCATGATCCGGGGTGGCC	0.161
CTTGGCATGTTATATAACAACTTAACTAACGGCCGCCATGCACGAAAGAGCAAACCGTCCTGTTGCCTAGTGACTATTATCCAAGGCAATCAAAGTAATCTGCAAATGCCACAGATATTTTTGAACAGCTGTTAGATGACCCAGATACAATATTTATATGGCTCGCTAGTTTCTCAGACAGAATTGGACCCTA	0.0325
CCCTCATCCTGGGTGTCGGGGTGGGAGGTGTTCTCATCATGAATGGGAGGCGTACCCAGATCCAGCTCTGCCTTTTTTGTGACTCACCAGAGTGTAAACAAATGGCTGTGTGTCACACCATAATCGACATAGCAAGATATGATACATGCCAGGAGAGAAAAAGAAAGTGCTGATGGAAAAATAATCTCATTAG	0.463
GGACAGGATTAGAGAAGCAACGTAGAAGTTCAAATATTTCACCTACCTGTCAACAGATTAGTGTGTGTTAAGTCAATATCTTTGCCAGATTAGGCAAACAAAAAGATCGTGTTGTGCAATATATGGGACATACTTATACTACAGTTTTATCTGTTGTTTATTTGAGGTTCAAATTACACTGGCAGCCCTTCAT	0.39

Block 3 — technique: RNA Bind-n-Seq; form: RNA; sample: in vitro; tested at: not given; notes: RNA with constant flanks, ends assumed; reference: input RNA pool; direction: higher = stronger binding
Target: RING finger protein unkempt homolog, zinc fingers 1-6, GST-SBP tag (UNK, Homo sapiens, UniProt Q9C0B0, residues 30-357)
Chain of UniProt Q9C0B0 (30-357, looked up): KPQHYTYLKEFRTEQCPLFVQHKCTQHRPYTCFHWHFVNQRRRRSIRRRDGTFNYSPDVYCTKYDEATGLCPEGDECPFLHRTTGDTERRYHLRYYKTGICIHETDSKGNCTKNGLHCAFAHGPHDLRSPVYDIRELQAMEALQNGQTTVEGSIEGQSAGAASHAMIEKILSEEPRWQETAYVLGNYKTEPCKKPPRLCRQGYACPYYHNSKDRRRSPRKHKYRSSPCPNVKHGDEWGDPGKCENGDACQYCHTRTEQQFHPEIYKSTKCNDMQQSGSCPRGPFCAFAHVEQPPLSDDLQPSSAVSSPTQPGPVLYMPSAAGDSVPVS
All sequences stand within: GGGAGUUCUACAGUCCGACGAUC … CAACAGAGGAUUGAGCAUCA
Sequence	bound/input enrichment [ratio]
CAGAUUUAUACUCCUGACGUGUCUCAUUCACAGCUAAAUAAUAGGCCAUAGGACUUUUGGCCGGUUUAAACUUUUAAUUCUGUAUUUCAUGAUUAUAAGUCUUGCUAGAAUUUUUUCUAA	0.445
GAUGAUAAUCACACAAAUGUGGCACUUUUAUGUGACCAGAGUUGUACUUCUUCUCCUGAUCCGUAUUCUCCCUGGAACCACUAGCCAAGGGGAAUCAAGACGACAAGAACCUGGGGACUU	0.176
UGGGUGACAGAGCGAGACUUAUAGAUAGAUAGAUAGAUAGAUGGAUAGAUAGAUAGACCGACCGACCGAUAGAUAAACGGAAUUGGAGCCAUUUUGCUUUAAGUGAAUGGCAGUCCCUUG	152
GGAUUGACCUAGUCUUGCUCCGACCUCAUAAACAAUCCACUCUGUAUUGUGCCCUGUCAAACCCGUGUGUGUGGUGUUAAUGAUGCUGGGAUUUUAUUUAUUGUAAAGCAAUGAGUCUGG	0.22
AAGGAUGCUUUUGAUAAAGGUUCCCUUUUUGGAGGGUCUGUAAAAUUGGCUCUUGCAAGCUCCGGAUAUGAAAAGAGCUGUGUGUUGUUCAAUUGUGCUGCCUUAGCUAGCCAGAUUGCA	0.29
GUUGAUGUGGAUUCUCUUGCUGAGUUAGAUGAUGGAAUGGCUUCCAAUCAAAAUUCUCCCAUCCGAACUUUUGGUCUCAAUCUUUCUUCGGAUUCUUCAGCACUAGGGGCUGUUGCUUCU	0.378

Block 4 — technique: RNA Bind-n-Seq; form: RNA; sample: in vitro; tested at: 365 nM; reference: no-protein control; direction: higher = stronger binding
Target: RNA binding protein fox-1 homolog 2, RRM domain, GST-SBP tag (RBFOX2, Homo sapiens, UniProt O43251-10, residues 100-194)
Notes: natural RNA segment, single round, ends assumed
All sequences stand within: GGGAGUUCUACAGUCCGACGAUC … UGGAAUUCUCGGGUGCCAA
Construct (chain): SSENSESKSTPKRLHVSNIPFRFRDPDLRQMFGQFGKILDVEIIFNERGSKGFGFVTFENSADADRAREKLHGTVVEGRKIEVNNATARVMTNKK
Sequence	RBNS enrichment (R)
UUUUUCCCCAAAAGUAUUUUAAUUUCUCUACCAAAGGGGGAAAAGAAAGCAGGCUGAGGUUAUUAUUGCUAACACACCUCAGCCGAGCAGGCUAUGUACCUCGAAGGGAG	0.335
UCUCCACUGCUGCCUCCCAGCAGAGGGCCCCAGGAUCUCCAAGGUCCCAGCUAUGGCUUUGGACAACGUGGCUUCGGCCCCUGGGGUUGCAGAGCUUGCAUUGGGUUUAC	0.196
CUGAUAGAUGCAUUAGAAGUCAGCCAGCGCAUAGGUGCUCCCUCUAUAUUAUGGAGAAAGCAAAACCCUGCAAAUGACCAAAUGGUGUCCAAAGAGCAGCAUGACAUUGG	2.44
CGACUACUUCAAAAUGAUCUGAAAAGUUAUCACACAAAAAGGGUCUACUGUAGGAUCUUACAUUCUGUUAGUAGUACAAAGGGAAGAGUUUUCCUAAUCCUUCCUUACCA	0.309
UUUUUUUAUUUAAAAAAAGAUAUAUUAACAGUUUUAGAAGUCAGUAGAAUAAAAUCUUAAAGCACUCAUAAUAUGGCAUCCUUCAAUUUCUGUAUAAAAGCAGAUCUUUU	1.02
CUGGCCUCAAACUUAGAGAUCUGCCUGACUCUGCCUUUGAGGGCUGGGACGAAUGCCACCACUGCCCAACUAAGAUUCCAUUAAAAAAAAAAAAAGUUCAAGAUAAUUAA	1.4
UCUGUAUAUUGGCAUCAGGUGGCAGCUGAAUAUCUUUUGAAUUACUCGAAGGUAAAGCCAGAUGCCAGAAUGAAGGUGUAGCCAGUGUUUCCCAUAUGCCCCUGGAGCCC	0.36
AUUGUUGUAUGGUCUCAAAUCCCAAGAUUUAAAUCACUUACCUAUUUAAUUGUGGAAAAUGAUUAUGAAGAACAUGUGUAUUUCUAUCUGGUAGUGAUGUAUAUUUUACA	0.403
UAAGGUAACUUUUAAAAAACACCUUUUAUAGGUGGAUCCAGCAGUCUGGCAACGCCCACAGUUACCACAACACAGAAAACUGAUCGUGCUAUAAAAUGGACGCUAAACUA	0.245
UCGAAUAGAGAAGGGGAAACUCCUUGAAUUUCUAGGUUUAAAAAGGAACUUUUAAAUUCCUUAAUGUUAAUAUUAAUGUUCAUGUUAAUGUCCUAAGCUGGCCAUUAACA	0.884
CUUCCAGGCACUGGCCUGAUGCCCCGCCCUGGUGCUCUCCCCAGGCUCCCUCCUCAGCCUCCUGCCCACCCAGGGCCCUUUACUCUCUUCUCCCUCCAGACCUUCCUCUG	1
UUUAAUAUUUUUCAUUUAGCUAUAUAAUAAAAUUCACUAGGAAAAUCAUUUAAAGUUGAAAGAAAAAUAUUUAUAUAUUUUAUGAACCACAAGGACACUUUAAAACCUUA	0.727

A few entries again (block 1):
Sequence	fitted relative affinity [z-score]
GTTCTTTTCTGTTGTCTGTGTGTGCTA	2.62
TCAACACTCGGTTTCCAACTGTGCTAG	3.38
GACGATCTCAGGCTCGAGACGTGCTAG	0.0895
GCCGGACTGGGTTTCGGGACGTGCTAG	1.49
